Measured values pooled from the literature.
Every numbered part comes from another study and shows a few of its results, in no order.

Sample 1
Target: Interferon regulatory factor 5, full length, phosphomimetic (IRF5, Homo sapiens, UniProt Q13568-2, residues 1-514, S451D/S453D/S456D/S462D)
Method: protein-binding microarray
Molecule type: double-stranded DNA, one strand shown
Medium: in vitro
Concentration: 940 nM top
Setting: 60-bp whole probe
Added: salmon DNA 0.4 mg/ml
Reference: random background probes
Reading: higher = stronger binding
Endpoint: fitted relative affinity
GCCTAGCACTCACCTCTGTTTTGAGCACTGTGCTAGGTCTTGATTCGCTTGACGCTGCTG: 0.27 z-score
GCCTAGCACTTAGAATTCGGGTTTCGATTAGTGCTAGTCTTGATTCGCTTGACGCTGCTG: 5.78 z-score
GCCTAGCACTCAACACTAGTTTTTACACTGTGCTAGGTCTTGATTCGCTTGACGCTGCTG: 0.107 z-score
GCCTAGCACTCAATTTTTACTTTCTGACTGTGCTAGGTCTTGATTCGCTTGACGCTGCTG: 1.64 z-score

Sample 2
Target: Prothrombin, mature alpha-thrombin (F2, Homo sapiens, UniProt P00734)
Method: aptamer microarray, sandwich
Molecule type: DNA with 2'F-ANA
Medium: in vitro
Concentration: 200 nM
Setting: whole 15-mer aptamer, many near background
Added: Cy3 exosite-II aptamer, 400 nM
Reading: higher = stronger binding
Endpoint: mean fluorescence intensity
GGTTGGTGTGGTTGG (2'F-ANA at 2 4 5 6 7 8 11): 148 a.u.
GGTTGGTGTGGTTGG (2'F-ANA at 1 2 3 5 7 9 10 12): 50.4 a.u.
GGTTGGTGTGGTTGG (2'F-ANA at 1 3 4 5 6 7 11 13 14): 51.9 a.u.

Sample 3
Target: Histone acetyltransferase KAT6A, winged helix 2, GST fusion (KAT6A, Homo sapiens, UniProt Q92794, residues 85-181)
Method: protein binding microarray
Molecule type: double-stranded DNA, one strand shown
Medium: in vitro
Concentration: not given
Setting: 8-mer, flanks averaged, mean of 2 arrays, mostly near background
Reference: not given
Reading: higher = stronger binding
Endpoint: E-score
Residues (chain): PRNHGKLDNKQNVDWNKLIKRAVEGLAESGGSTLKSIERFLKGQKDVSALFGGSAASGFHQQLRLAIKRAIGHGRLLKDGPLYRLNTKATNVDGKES
AAAGCCTG: -0.104
CAGCGGAG: 0.172
CGCATATA: -0.136
AGCTAGAA: -0.0111

Mixed results
PhoQ, residues 284 288 289 292 302 303 SMYGEC  fold induction (PhoP, residues 12 14 15 18 19 LHSVW (Escherichia coli, UniProt P23836); Sort-seq, refers to: YFP reporter; E. coli; PhoQ-PhoP variant library, added: 10 µM Mg2+; reference: high Mg2+ state, higher = stronger signaling): 11.6

Some of these lines once more (sample 1):
GCCTAGCACTCAACACTAGTTTTTACACTGTGCTAGGTCTTGATTCGCTTGACGCTGCTG: 0.107 z-score
GCCTAGCACTTAGAATTCGGGTTTCGATTAGTGCTAGTCTTGATTCGCTTGACGCTGCTG: 5.78 z-score
